Published values of several laboratories.
A part holds a random share of what one study measured. Positions count from the first letter of the parent shown.

Set 1
Target: CCNE1, cyclin fold, Cln2 fusion (human)
Technique: yeast growth competition, sequencing
Matrix: yeast
Setting: strong parent motif
Relative to: not given
Direction: higher = stronger binding
Quantity: normalised enrichment score
Parent: E2F1 docking peptide (human); PPVKRRLDLETDH
PPVKRRLDLETDA [H13A]: 1.8
PPVKRRLELETDH [D8E]: 1.4
IPVKRRLDLETDH [P1I]: 1.01
PPVKGRLDLETDH [R5G]: 0.147
PPQKRRLDLETDH [V3Q]: 0.262
PPVKRRLDLEFDH [T11F]: 4.25
PPVKRRLDLETFH [D12F]: 2.77
PPVARRLDLETDH [K4A]: 1.53
EPVKRRLDLETDH [P1E]: 1.36
PIVKRRLDLETDH [P2I]: 0.497
PPVKRRLDLITDH [E10I]: 1.14
PKVKRRLDLETDH [P2K]: 1.61
PPVKRRLDLETDK [H13K]: 2.18
PPVKRRLDLATDH [E10A]: 1.75
APVKRRLDLETDH [P1A]: 1.64
PPVKRRLDLEYDH [T11Y]: 3.49
PPVKRRLDLKTDH [E10K]: 0.104
PPVKRRLDLEDDH [T11D]: 1.86
PPVKRRLDLETDF [H13F]: 2.05
PPVKRRMDLETDH [L7M]: 0.173
PFVKRRLDLETDH [P2F]: 2.12
PPVKRRLDLETRH [D12R]: 0.961
PPSKRRLDLETDH [V3S]: 0.64
PPVKRRLDLETDT [H13T]: 1.56
PPVKRRLHLETDH [D8H]: 0.422

Set 2
Target: RNA binding protein fox-1 homolog 2, RRM domain, GST-SBP tag (RBFOX2, Homo sapiens, UniProt O43251-10, residues 100-194)
Technique: RNA Bind-n-Seq
Form: RNA
Matrix: in vitro
Concentration: 365 nM
Setting: natural RNA segment, single round, ends assumed
Relative to: no-protein control
Direction: higher = stronger binding
Quantity: RBNS enrichment (R)
All sequences stand within: GGGAGUUCUACAGUCCGACGAUC … UGGAAUUCUCGGGUGCCAA
Target sequence (chain): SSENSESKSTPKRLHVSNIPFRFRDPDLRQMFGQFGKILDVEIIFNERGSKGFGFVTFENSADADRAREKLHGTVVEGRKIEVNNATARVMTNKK
AGCUUCUUUCCCAGAAUAAACUUAUCAUGCAUUUGCUUACCUAAAAUUUAAGUUUCAAAUUAGUUCUCUAUAUGAGAUACUUAAUCGAGCAUAUAUAUUUAUAUUCAUUG: 0.472
CGUGCAGCUUUUCUAUAUGCACGUGUUUUAUUAAUCUGAAUAUUCUCCUUCUGUCUCGGUUUGUGUCCCUUUCAUUCCCUUUUAGUAUUUGCAAGAGGAAAAUUGUCUGU: 0.94
UUUUUUGUUUGUUUGUUUUUAAGAAACAAGAAAACAGAACUGCCUUUGCACUAAAUUAGUGACUUGGACUUUUGCCCAGUGAAGACAGGCUGUGACACUCUGGAUGUCUU: 0.346
GGCUUCUUCUUUGCCUGUUCCAAAAGCCAGGGCCCUGGGCCUGCUCUUCAUCUUGCGGGCCUCCUAGGACCCAGCCUUCCAAAGUCCUGGCUGACAGAUGCUGCUCUUGG: 0.355
GGUUUGUGAGCUCUCUGCUCUGUUUUUGCUGUUUACUGGACUUUGGUUUCUUUCAUAACCCAUUUCUUUAACCUCUUGUCAAUGAAAAUAAAAAGAAGAGGAAGGAAGGA: 1.49
UUCUUGUUAAAAUGACUGAUUCUCGUGCAUGUGAAAGGCUCUGGGGAAUGAAUACCUGUUUGGUCCAAACUUACUGUAUCAUAAUGCUGUAUAUGUUGAAAACGUAAUAC: 13.7
AUCAAAUCUAUUCAGGUUUCUUCACUGUUGAGAACACCUAAAUGUUUUUAUUUUUGAGAAGUGGGGACAGAGUCUCACUAUGUCACCCAGGCUGGAGUGCAAUGGCAUGA: 0.886
UUGCAUCUGUUACUACUUAGUUUCAUAGGCUUUAAUUCUAGUAUGCAUUAAAUAUUGGGCAAAAUUGCACUUGACUAAUUUUUUGAAGAAAAGUAAUUUAUUCUGUCAAG: 0.5
UUUGUACAUUUUUGUAUGUUAAUUUAUGAAUGAUUUUUUCAGUAAAAAAUACAUAUUCAAGAACCAACCUUGGUGGUCAUUUCUCUUUGUGUAGGACAGUUUGGGUCCUU: 0.534
UUGAGAAACACAUAACAUCUCUCCUUUCUAUGAAAAAUUUUUUAAAAGGUGGUUAAAAUUGCCUUUAAUUGCCCAGUAGACUAAUUCCACAGUCAGAACAUGCAAACUUU: 0.701
GUGGCGCACGCCUGUGAUCCUAGCCCUUGGGAGGCUGAGGCAGGAGGAUUGCUCUGAGUUCCAGGUCAAGUCUGGGCUACAGAGUGAGACGCUGCCUCAAGAAAAGGGGA: 0.376
GUAGCAAUUUGCAUUUUAAAAUGCCUGAGCAUUUAUUAAGCUUCUUGGUAUUCACUUGGGUUUGAUAAUUGAUCUGAGCUACCUCAUUGAAUGUUUUUGGAAAGGUGUUU: 1.17

Set 3
Target: Histone acetyltransferase KAT6A, winged helix 2, GST fusion (KAT6A, Homo sapiens, UniProt Q92794, residues 85-181)
Technique: protein binding microarray
Form: double-stranded DNA, one strand shown
Matrix: in vitro
Concentration: not given
Setting: 8-mer, flanks averaged, mean of 2 arrays, mostly near background
Relative to: not given
Direction: higher = stronger binding
Quantity: E-score
Target sequence (chain): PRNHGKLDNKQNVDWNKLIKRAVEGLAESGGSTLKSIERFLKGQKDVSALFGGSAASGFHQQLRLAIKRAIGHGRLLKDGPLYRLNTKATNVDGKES
CTGTTGGC: -0.0328
AGAATGGC: 0.00229
AGGTTTCA: -0.0139
CTTTGAGA: 0.109
CACTTCGG: 0.0995
CTCACGCC: 0.0966
ACATCACG: -0.154
CCCTTTAG: -0.0253
GTCTACTA: 0.0585
AAGCCGGC: 0.175
CCGGCGGA: 0.256
CAGAAGTC: -0.142
AGGGACAT: -0.0936
TATAGTGA: -0.107
ATAAGTTA: 0.0402
CCCCAGCA: 0.058
GCGTCCAA: -0.0146
CCGGCTGC: 0.227
GTGCGTAA: 0.00563
ACCCCCGT: 0.0341
AGGCAGCG: -0.0451

Set 4
Target: Ras GTPase-activating protein-binding protein 1, full length (G3BP1, Homo sapiens, UniProt Q13283)
Chain of UniProt Q13283 (whole entry, looked up): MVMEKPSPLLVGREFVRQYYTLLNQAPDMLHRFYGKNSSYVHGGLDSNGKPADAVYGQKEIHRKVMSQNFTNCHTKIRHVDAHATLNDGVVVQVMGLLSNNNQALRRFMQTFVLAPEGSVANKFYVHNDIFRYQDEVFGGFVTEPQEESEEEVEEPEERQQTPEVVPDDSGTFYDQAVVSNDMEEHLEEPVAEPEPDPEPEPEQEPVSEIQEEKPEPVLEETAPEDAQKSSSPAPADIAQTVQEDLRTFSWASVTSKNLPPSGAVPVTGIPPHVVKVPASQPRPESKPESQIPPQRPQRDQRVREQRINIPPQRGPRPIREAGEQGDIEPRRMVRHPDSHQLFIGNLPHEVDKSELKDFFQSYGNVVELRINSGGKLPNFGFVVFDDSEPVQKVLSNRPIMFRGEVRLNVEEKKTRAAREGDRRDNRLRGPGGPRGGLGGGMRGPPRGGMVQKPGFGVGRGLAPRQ
Technique: RNA Bind-n-Seq
Form: RNA
Matrix: in vitro
Concentration: 200 nM
Setting: whole 134-nt RNA, ends assumed
With: 150 mM KCl
Relative to: input library
Direction: higher = stronger binding
Quantity: log2 enrichment
All sequences stand within: GGGAGUUCUACAGUCCGACGAUC … UGGAAUUCUCGGGUGUCAAGG
CAAGUCCUGUGCUACACAUCGUAUGUACCGAAUCGGAAAAAGGUUUUUUUGGUGGAAAGUAUUAUGUUACGCCGUUCGGAUCUGCACUUC: -1.28
UCAAGUCCUGUGCUACACAUCGUAUGUACCGAAUCGGGUUUGGGAGGGUUUGGGAAAGUAUUAUGUUACGCCGUUCGGAUCUGCACUUCC: 0.966
UUAGGGUCAUGUGAAGGUGGUGCGCUACUUAGUCAAAGAAGUCAAUCAGUUUCCAUCAGAUUCUGAAUGUAUGAGAUACAUAGCAACCAU: -1.57
AAGUCCUGUGCUACACAUCGUAUGUACCGAAUCGGGGAGGGGAGGGGAAAAAGGGGAAAGUAUUAUGUUACGCCGUUCGGAUCUGCACUU: 0.676
AGUCCUGUGCUACACAUCGUAUGUACCGAAUCGGGGAGGGGAAAAAGGGGAAAGGGGAAAGUAUUAUGUUACGCCGUUCGGAUCUGCACU: 0.482
AAGUCCUGUGCUACACAUCGUAUGUACCGAAUCGGGUUUGGGUUUUUUUGGGUGGGAAAGUAUUAUGUUACGCCGUUCGGAUCUGCACUU: 0.258
GUCCUGUGCUACACAUCGUAUGUACCGAAUCGGGUUUUUGGUUUUUGGGGUUUUUGGGAAAGUAUUAUGUUACGCCGUUCGGAUCUGCAC: -0.715
AAGUCCUGUGCUACACAUCGUAUGUACCGAAUCGGGAGGGAAAAAGGGAAAAAGGGAAAGUAUUAUGUUACGCCGUUCGGAUCUGCACUU: 0.202
UGGCCCUUGUGGCAUGCGGGGAGGAAGAGGUGGCCUCAUGGAUCGUGGUGGUCCCGGUGGAAUGUUCAGAGGUGGCCGUGGUGGAGACAG: 0.185
UCAAGUCCUGUGCUACACAUCGUAUGUACCGAAUCGGAAAAAAAGGAAAGGAGGAAAGUAUUAUGUUACGCCGUUCGGAUCUGCACUUCC: -0.91
CCUGUGCUACACAUCGUAUGUACCGAAUCGGGUUUUUUGGGGUUUUUUGGGGUUUUUUGGAAAGUAUUAUGUUACGCCGUUCGGAUCUGC: -0.559
UAACUUUAGAGGAGGAUCUGAUGGAUAUGGCAGUGGACGUGGAUUUGGGGACGGCUAUAAUGGGUAUGGAGGAGGACCUGGAGGUGGCAA: 0.231
GUCCUGUGCUACACAUCGUAUGUACCGAAUCGGGGUUUUUGGGUUUUUGGUUUUUGGGGAAAGUAUUAUGUUACGCCGUUCGGAUCUGCA: -0.502
GUCCUGUGCUACACAUCGUAUGUACCGAAUCGGGGUUUUUUUGGGGUGGGGUUUGGGGAAAGUAUUAUGUUACGCCGUUCGGAUCUGCAC: 0.457

Set 5
Target: Interferon regulatory factor 5, full length, phosphomimetic (IRF5, Homo sapiens, UniProt Q13568-2, residues 1-514, K96S/S451D/S453D/S456D/S462D)
Technique: protein-binding microarray
Form: double-stranded DNA, one strand shown
Matrix: in vitro
Concentration: 250 nM
Setting: 60-bp whole probe
With: salmon DNA 0.4 mg/ml
Relative to: random background probes
Direction: higher = stronger binding
Quantity: log fluorescence
All sequences stand within: GCCTAGCAC … GTCTTGATTCGCTTGACGCTGCTG
GACGATTCAAGTTTCGAGACGTGCTAG: 4.03 z-score
TTAGAACTGGAGTATCGATTAGTGCTA: 4.91 z-score
CTCTGTCCCTGTTTCTACTGGTGCTAG: 0.668 z-score
TTAGAACTGAGTCTCAATTAGTGCTAG: 0.263 z-score
GACGTTTCCCTTTTCCTGACGTGCTAG: 1.29 z-score
TTAGGTATCCGACTGCTTTAGTGCTAG: -0.0812 z-score
TCAACTTTCCATTTCTGACTGTGCTAG: 1.82 z-score
GACGGACTGAGGACTGGGGACGTGCTA: -0.417 z-score
GACGAACTGAGTTACGAGACGTGCTAG: 0.0265 z-score
TTAGGTTTCCAACTGCTTTAGTGCTAG: 0.196 z-score
TTAGGACTGGACTTTCGGTGAGTGCTA: 8.1 z-score
GACGGTACCGGGTATCGGGACGTGCTA: 0.469 z-score
GACGGCTTCGGACTGGGGACGTGCTAG: -0.365 z-score
TTAGGTATCGGGTATCGGGTAGTGCTA: 4.95 z-score
GACGGTTACGGTTTCGGGACGTGCTAG: 2.5 z-score
GACGGTGTCGGTATCGGGACGTGCTAG: 0.845 z-score
TTAGGACTGGGATTCGGTTAGTGCTAG: 0.226 z-score
GACGGTTTGCTTCTCCTGACGTGCTAG: -0.128 z-score
TTAGGTTGCCTTATCCTTTAGTGCTAG: 0.0309 z-score
TTAGATTTCGGATTTCGATTAGTGCTA: 5.91 z-score

A few entries again (set 5):
GACGATTCAAGTTTCGAGACGTGCTAG: 4.03 z-score
TTAGAACTGGAGTATCGATTAGTGCTA: 4.91 z-score
CTCTGTCCCTGTTTCTACTGGTGCTAG: 0.668 z-score
TTAGAACTGAGTCTCAATTAGTGCTAG: 0.263 z-score
GACGTTTCCCTTTTCCTGACGTGCTAG: 1.29 z-score
TTAGGTATCCGACTGCTTTAGTGCTAG: -0.0812 z-score
TCAACTTTCCATTTCTGACTGTGCTAG: 1.82 z-score
